{"data": "Measurements pooled from the literature", "note": "Every numbered part comes from another study and shows a few of its results, in no order.", "sequence of UniProt P52564 (whole entry, looked up)": "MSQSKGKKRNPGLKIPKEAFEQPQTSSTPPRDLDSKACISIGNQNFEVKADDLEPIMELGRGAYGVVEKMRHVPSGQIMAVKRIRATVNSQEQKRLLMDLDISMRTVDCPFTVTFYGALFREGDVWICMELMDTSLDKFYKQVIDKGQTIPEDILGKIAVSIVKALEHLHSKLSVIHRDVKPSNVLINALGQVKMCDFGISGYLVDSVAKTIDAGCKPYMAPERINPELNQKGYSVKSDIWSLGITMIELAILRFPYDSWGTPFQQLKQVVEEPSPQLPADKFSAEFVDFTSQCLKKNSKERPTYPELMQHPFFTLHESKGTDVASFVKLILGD", "sequence of UniProt Q02750 (whole entry, looked up)": "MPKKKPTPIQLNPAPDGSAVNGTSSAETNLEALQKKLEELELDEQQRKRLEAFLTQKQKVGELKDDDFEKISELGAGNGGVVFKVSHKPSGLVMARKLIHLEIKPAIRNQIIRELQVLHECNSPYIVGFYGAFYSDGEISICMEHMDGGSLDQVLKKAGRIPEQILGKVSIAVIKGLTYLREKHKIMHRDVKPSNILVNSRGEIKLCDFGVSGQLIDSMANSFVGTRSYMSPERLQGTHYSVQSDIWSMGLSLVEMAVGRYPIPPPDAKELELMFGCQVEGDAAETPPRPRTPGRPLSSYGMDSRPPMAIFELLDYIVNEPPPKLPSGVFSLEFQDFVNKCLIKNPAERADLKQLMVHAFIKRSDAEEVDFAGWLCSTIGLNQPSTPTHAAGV", "sequence of UniProt P53778 (whole entry, looked up)": "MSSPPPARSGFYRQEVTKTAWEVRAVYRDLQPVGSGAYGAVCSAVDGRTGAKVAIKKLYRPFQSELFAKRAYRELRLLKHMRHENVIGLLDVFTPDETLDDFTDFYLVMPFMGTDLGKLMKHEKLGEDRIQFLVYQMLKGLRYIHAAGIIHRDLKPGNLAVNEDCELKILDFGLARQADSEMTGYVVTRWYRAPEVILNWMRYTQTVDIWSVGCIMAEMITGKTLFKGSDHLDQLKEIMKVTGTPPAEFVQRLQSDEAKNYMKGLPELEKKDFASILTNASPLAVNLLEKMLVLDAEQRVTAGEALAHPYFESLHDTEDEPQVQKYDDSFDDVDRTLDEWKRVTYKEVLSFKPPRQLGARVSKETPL", "sequence of UniProt Q12851 (whole entry, looked up)": "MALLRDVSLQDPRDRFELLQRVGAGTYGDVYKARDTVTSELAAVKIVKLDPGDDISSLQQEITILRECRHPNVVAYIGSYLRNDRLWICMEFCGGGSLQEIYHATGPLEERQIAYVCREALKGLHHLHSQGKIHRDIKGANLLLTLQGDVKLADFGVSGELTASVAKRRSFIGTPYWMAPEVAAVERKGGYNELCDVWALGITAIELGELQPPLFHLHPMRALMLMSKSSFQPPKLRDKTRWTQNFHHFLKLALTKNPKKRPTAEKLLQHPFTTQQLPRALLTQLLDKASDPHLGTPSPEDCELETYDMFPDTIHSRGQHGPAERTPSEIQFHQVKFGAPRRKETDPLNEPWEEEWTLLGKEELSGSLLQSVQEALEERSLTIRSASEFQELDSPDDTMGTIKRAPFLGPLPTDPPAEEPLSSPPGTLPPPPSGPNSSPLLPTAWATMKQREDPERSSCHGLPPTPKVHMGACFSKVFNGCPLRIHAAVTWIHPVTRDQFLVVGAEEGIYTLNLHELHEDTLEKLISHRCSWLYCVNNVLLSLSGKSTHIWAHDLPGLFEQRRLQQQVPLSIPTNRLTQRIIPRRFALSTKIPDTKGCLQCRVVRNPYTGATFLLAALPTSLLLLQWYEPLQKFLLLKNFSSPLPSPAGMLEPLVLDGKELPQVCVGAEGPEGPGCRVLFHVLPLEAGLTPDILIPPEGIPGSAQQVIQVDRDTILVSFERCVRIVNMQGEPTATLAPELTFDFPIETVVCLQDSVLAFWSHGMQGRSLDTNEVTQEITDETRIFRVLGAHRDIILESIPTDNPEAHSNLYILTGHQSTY", "sequence of UniProt O75676 (whole entry, looked up)": "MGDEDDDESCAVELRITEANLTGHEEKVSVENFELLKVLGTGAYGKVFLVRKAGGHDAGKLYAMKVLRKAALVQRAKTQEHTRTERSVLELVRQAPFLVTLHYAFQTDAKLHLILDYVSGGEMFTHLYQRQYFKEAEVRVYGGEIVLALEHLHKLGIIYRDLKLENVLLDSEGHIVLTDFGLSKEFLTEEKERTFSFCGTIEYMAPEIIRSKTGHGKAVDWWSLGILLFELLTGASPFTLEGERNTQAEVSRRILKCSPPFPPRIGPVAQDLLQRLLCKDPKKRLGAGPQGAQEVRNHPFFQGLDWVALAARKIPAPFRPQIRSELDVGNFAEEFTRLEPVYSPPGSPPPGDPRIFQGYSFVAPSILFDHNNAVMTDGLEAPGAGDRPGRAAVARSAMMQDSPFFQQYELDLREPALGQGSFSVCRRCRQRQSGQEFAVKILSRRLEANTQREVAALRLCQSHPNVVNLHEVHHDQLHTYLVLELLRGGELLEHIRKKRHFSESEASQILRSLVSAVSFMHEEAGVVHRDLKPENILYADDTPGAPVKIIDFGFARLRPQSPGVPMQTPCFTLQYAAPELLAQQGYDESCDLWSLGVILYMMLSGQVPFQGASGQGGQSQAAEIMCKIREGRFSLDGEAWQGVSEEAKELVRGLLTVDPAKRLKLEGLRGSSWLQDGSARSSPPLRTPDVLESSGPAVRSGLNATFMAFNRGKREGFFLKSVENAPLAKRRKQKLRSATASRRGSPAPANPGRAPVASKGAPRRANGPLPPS", "sequence of UniProt Q9HBH9 (whole entry, looked up)": "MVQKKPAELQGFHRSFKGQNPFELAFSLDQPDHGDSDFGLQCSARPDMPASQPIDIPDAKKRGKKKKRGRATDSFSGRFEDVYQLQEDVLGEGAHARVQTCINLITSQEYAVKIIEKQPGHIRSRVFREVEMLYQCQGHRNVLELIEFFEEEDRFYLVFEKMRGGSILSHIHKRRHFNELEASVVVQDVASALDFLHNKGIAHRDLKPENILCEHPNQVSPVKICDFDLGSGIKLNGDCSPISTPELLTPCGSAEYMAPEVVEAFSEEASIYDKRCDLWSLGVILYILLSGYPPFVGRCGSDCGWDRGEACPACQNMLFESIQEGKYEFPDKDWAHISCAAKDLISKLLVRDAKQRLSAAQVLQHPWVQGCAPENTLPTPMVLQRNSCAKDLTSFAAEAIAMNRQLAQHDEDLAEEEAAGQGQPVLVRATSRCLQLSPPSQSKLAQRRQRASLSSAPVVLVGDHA", "sequence of UniProt P78362 (whole entry, looked up)": "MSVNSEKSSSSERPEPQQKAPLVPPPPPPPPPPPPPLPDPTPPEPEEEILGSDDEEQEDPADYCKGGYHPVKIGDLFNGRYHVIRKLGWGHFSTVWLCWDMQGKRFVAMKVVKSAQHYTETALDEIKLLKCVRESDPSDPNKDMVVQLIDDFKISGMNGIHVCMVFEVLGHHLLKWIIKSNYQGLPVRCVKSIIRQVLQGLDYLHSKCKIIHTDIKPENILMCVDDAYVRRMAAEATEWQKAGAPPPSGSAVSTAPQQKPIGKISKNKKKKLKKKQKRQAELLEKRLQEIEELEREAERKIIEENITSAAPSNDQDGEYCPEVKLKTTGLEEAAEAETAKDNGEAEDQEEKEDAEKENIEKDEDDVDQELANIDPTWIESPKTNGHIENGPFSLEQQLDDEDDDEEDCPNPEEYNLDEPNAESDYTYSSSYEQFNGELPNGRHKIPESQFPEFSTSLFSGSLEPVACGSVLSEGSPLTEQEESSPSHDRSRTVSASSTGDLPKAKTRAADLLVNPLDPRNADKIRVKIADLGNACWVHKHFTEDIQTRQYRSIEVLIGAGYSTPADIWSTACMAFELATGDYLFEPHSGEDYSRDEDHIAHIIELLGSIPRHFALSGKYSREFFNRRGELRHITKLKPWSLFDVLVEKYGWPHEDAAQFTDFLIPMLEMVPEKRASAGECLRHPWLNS", "sequence of UniProt P41743 (whole entry, looked up)": "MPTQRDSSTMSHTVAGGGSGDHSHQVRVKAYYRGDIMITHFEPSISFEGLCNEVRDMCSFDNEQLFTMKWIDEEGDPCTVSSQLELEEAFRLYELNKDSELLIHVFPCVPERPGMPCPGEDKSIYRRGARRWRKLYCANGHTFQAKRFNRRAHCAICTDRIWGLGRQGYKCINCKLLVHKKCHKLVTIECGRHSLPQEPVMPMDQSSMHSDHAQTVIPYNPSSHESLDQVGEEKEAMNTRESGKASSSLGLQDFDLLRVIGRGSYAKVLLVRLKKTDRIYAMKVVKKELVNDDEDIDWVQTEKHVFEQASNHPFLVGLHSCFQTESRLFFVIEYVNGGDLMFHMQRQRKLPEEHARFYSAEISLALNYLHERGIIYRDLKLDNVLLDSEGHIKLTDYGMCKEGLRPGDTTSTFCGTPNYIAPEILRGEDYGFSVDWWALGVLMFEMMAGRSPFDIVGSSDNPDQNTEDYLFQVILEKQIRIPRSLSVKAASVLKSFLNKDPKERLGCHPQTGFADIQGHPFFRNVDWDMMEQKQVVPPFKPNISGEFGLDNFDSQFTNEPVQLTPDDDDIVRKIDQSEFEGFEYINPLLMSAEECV", "sequence of UniProt P07948 (whole entry, looked up)": "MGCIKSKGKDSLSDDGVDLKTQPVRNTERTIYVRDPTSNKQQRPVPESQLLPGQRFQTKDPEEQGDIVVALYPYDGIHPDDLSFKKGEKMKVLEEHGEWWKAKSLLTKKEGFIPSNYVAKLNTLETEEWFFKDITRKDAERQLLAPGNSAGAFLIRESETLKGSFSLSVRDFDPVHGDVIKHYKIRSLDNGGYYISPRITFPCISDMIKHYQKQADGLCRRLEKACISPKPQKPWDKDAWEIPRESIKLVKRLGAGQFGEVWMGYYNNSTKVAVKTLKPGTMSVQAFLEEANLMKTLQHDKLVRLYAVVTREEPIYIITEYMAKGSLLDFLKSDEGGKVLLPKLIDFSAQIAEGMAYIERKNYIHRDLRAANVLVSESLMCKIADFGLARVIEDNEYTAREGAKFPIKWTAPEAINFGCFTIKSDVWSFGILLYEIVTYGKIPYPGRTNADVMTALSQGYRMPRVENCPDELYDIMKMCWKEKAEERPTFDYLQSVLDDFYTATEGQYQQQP"}
{"data": "Set 1", "Structure (SMILES)": "CCN1/C(=C/C(C)=O)Sc2ccc(OC)cc21", "read-out": "enzyme activity", "mode": "inhibitor", "tested at": "0.5 µM", "relative to": "control"}
{"target": "WNK2 (Homo sapiens, UniProt Q9Y3S1)", "remaining activity [%]": 91.1}
{"target": "MAP4K2 (Homo sapiens, UniProt Q12851)", "remaining activity [%]": 105}
{"target": "MAP3K10 (Homo sapiens, UniProt Q02779)", "remaining activity [%]": 95}
{"target": "CHEK1 (Homo sapiens, UniProt O14757)", "remaining activity [%]": 87.9}
{"target": "MKNK2 (Homo sapiens, UniProt Q9HBH9)", "remaining activity [%]": 93.8}
{"target": "CSNK2A1 (Homo sapiens, UniProt P68400)", "remaining activity [%]": 98.1}
{"target": "PRKCD (Homo sapiens, UniProt Q05655)", "remaining activity [%]": 88.2}
{"target": "Cyclin-dependent kinase 9, with cyclin T1 (CDK9, Homo sapiens, UniProt P50750)", "remaining activity [%]": 101}
{"target": "KIT (Homo sapiens, UniProt P10721)", "remaining activity [%]": 67.8}
{"target": "MAPK12 (Homo sapiens, UniProt P53778)", "remaining activity [%]": 99.8}
{"target": "LRRK2 (Homo sapiens, UniProt Q5S007)", "remaining activity [%]": 98.1}
{"target": "BTK (Homo sapiens, UniProt Q06187)", "remaining activity [%]": 101}
{"target": "CSNK1A1 (Homo sapiens, UniProt P48729)", "remaining activity [%]": 53}
{"target": "MAP2K6 (Homo sapiens, UniProt P52564)", "remaining activity [%]": 86.7}
{"target": "PLK2 (Homo sapiens, UniProt Q9NYY3)", "remaining activity [%]": 100}
{"target": "EPHA5 (Homo sapiens, UniProt P54756)", "remaining activity [%]": 97.8}
{"target": "MAPK13 (Homo sapiens, UniProt O15264)", "remaining activity [%]": 105}
{"target": "PRKCI (Homo sapiens, UniProt P41743)", "remaining activity [%]": 97.8}
{"target": "AKT3 (Homo sapiens, UniProt Q9Y243)", "remaining activity [%]": 96.1}
{"target": "PRKG1 (Homo sapiens, UniProt Q13976)", "remaining activity [%]": 82.4}
{"target": "NEK4 (Homo sapiens, UniProt P51957)", "remaining activity [%]": 92.8}
{"target": "IRAK4 (Homo sapiens, UniProt Q9NWZ3)", "remaining activity [%]": 123}
{"target": "LYN (Homo sapiens, UniProt P07948)", "remaining activity [%]": 101}
{"data": "Set 2", "cell line": "HaCaT", "tested at": "100 µM", "time": "60 h"}
{"SMILES": "COc1ccc2c(c1)c(CC(=O)OCC(=O)O)c(C)n2C(=O)c1ccc(Cl)cc1", "viability [%]": 115}
{"SMILES": "CN/C(=N/CCSCc1nc[nH]c1C)NC#N", "viability [%]": 124}
{"SMILES": "COCCOC(=O)C1=C(C)NC(C)=C(C(=O)OC(C)C)C1c1cccc([N+](=O)[O-])c1 (stereo not shown)", "viability [%]": 18.5}
{"SMILES": "CC(=O)Oc1cc(C(F)(F)F)ccc1C(=O)O", "viability [%]": 126}
{"SMILES": "Cc1cncc(CN2CCC(=C3c4ccc(Cl)cc4CCc4cccnc43)CC2)c1", "viability [%]": 15.6}
{"SMILES": "COc1ccc2[nH]c(SCc3ncc(C)c(OC)c3C)nc2c1", "viability [%]": 91.4}
{"SMILES": "Cc1onc(-c2ccccc2)c1-c1ccc(S(N)(=O)=O)cc1", "viability [%]": 93.4}
{"SMILES": "Nc1ncnc2c1ncn2[C@@H]1O[C@H](COP(=O)(O)O)[C@@H](O)[C@H]1O", "viability [%]": 92.2}
{"SMILES": "Cc1[nH]c(=O)c(C#N)cc1-c1ccncc1", "viability [%]": 153}
{"SMILES": "O=c1cc(-c2ccccc2)oc2cc(O)c(O)c(O)c12", "viability [%]": 39.8}
{"SMILES": "CCn1cc(C(=O)O)c(=O)c2ccc(C)nc21", "viability [%]": 117}
{"SMILES": "COc1ccc(-c2cc(=S)ss2)cc1", "viability [%]": 107}
{"data": "Set 3", "SMILES": "CC(=O)c1c(NS(C)(=O)=O)c2cc(-c3ccc(Cl)cc3)c(-c3ccc(Cl)cc3Cl)nc2n(C)c1=O", "tested at": "1 µM"}
{"target": "CDK11A (Homo sapiens, UniProt Q9UQ88)", "test": "cell-free assay, competition with immobilised ligand", "remaining binding [%]": 98}
{"target": "MAP3K1 (Homo sapiens, UniProt Q13233)", "test": "cell-free assay, competition with immobilised ligand", "remaining binding [%]": 94}
{"target": "Ribosomal protein S6 kinase alpha-4, N-terminal kinase domain (RPS6KA4, Homo sapiens, UniProt O75676)", "test": "cell-free assay, competition with immobilised ligand", "remaining binding [%]": 87}
{"target": "CDK19 (Homo sapiens, UniProt Q9BWU1)", "test": "competition binding", "remaining binding [%]": 100}
{"target": "SIK2 (Homo sapiens, UniProt Q9H0K1)", "test": "cell-free assay, competition with immobilised ligand", "remaining binding [%]": 100}
{"target": "EPHA8 (Homo sapiens, UniProt P29322)", "test": "cell-free assay, competition with immobilised ligand", "remaining binding [%]": 97}
{"target": "MAP2K1 (Homo sapiens, UniProt Q02750)", "test": "cell-free assay, competition with immobilised ligand", "remaining binding [%]": 81}
{"target": "STK11 (Homo sapiens, UniProt Q15831)", "test": "cell-free assay, competition with immobilised ligand", "remaining binding [%]": 100}
{"target": "MAP3K3 (Homo sapiens, UniProt Q99759)", "test": "cell-free assay, competition with immobilised ligand", "remaining binding [%]": 100}
{"target": "ACVR1B (Homo sapiens, UniProt P36896)", "test": "cell-free assay, competition with immobilised ligand", "remaining binding [%]": 92}
{"target": "PLK1 (Homo sapiens, UniProt P53350)", "test": "cell-free assay, competition with immobilised ligand", "remaining binding [%]": 87}
{"target": "SRPK1 (Homo sapiens, UniProt Q96SB4)", "test": "cell-free assay, competition with immobilised ligand", "remaining binding [%]": 100}
{"target": "MAP3K4 (Homo sapiens, UniProt Q9Y6R4)", "test": "cell-free assay, competition with immobilised ligand", "remaining binding [%]": 95}
{"target": "STK16 (Homo sapiens, UniProt O75716)", "test": "cell-free assay, competition with immobilised ligand", "remaining binding [%]": 100}
{"target": "NEK5 (Homo sapiens, UniProt Q6P3R8)", "test": "cell-free assay, competition with immobilised ligand", "remaining binding [%]": 100}
{"target": "AAK1 (Homo sapiens, UniProt Q2M2I8)", "test": "binding", "remaining binding [%]": 100}
{"target": "MET (Homo sapiens, UniProt P08581, Y1235D)", "test": "cell-free assay, competition with immobilised ligand", "remaining binding [%]": 95}
{"data": "Set 4", "Structure (SMILES)": "COc1ccc2[nH]c3c4[nH]c5ccc(OC)cc5c4c4c(c3c2c1)C(=O)NC4=O", "tested at": "1 µM"}
{"target": "SIK1 (Homo sapiens, UniProt P57059)", "test": "competitive binding", "setting": "SIK", "remaining binding": "67%"}
{"target": "MAPK4 (Homo sapiens, UniProt P31152)", "test": "competitive binding panel, refers to: ERK4", "how to read": "relative to: vehicle", "remaining binding": "74%"}
{"target": "EPHA2 (Homo sapiens, UniProt P29317)", "test": "competitive binding panel", "how to read": "relative to: vehicle", "remaining binding": "85%"}
{"target": "FRK (Homo sapiens, UniProt P42685)", "test": "competitive binding panel", "how to read": "relative to: vehicle", "remaining binding": "88%"}
{"target": "MAP2K6 (Homo sapiens, UniProt P52564)", "test": "competitive binding panel, refers to: MEK6", "how to read": "relative to: vehicle", "remaining binding": "97%"}
{"target": "MAP3K7 (Homo sapiens, UniProt O43318)", "test": "competitive binding panel, refers to: TAK1", "how to read": "relative to: vehicle", "remaining binding": "20%"}
{"target": "ERBB2 (Homo sapiens, UniProt P04626)", "test": "competitive binding panel", "how to read": "relative to: vehicle", "remaining binding": "100%"}
{"target": "MAP4K5 (Homo sapiens, UniProt Q9Y4K4)", "test": "competitive binding panel", "how to read": "relative to: vehicle", "remaining binding": "51%"}
{"target": "PAK2 (Homo sapiens, UniProt Q13177)", "test": "competitive binding panel", "how to read": "relative to: vehicle", "remaining binding": "91%"}
{"target": "SRPK2 (Homo sapiens, UniProt P78362)", "test": "competitive binding panel", "how to read": "relative to: vehicle", "remaining binding": "94%"}
{"target": "DAPK3 (Homo sapiens, UniProt O43293)", "test": "competitive binding panel", "how to read": "relative to: vehicle", "remaining binding": "4.8%"}
{"target": "RAF1 (Homo sapiens, UniProt P04049)", "test": "competitive binding panel", "how to read": "relative to: vehicle", "remaining binding": "100%"}
{"target": "STK38 (Homo sapiens, UniProt Q15208)", "test": "competitive binding panel, refers to: NDR1", "how to read": "relative to: vehicle", "remaining binding": "57%"}
{"target": "FER (Homo sapiens, UniProt P16591)", "test": "competitive binding panel", "how to read": "relative to: vehicle", "remaining binding": "58%"}
{"target": "DMPK (Homo sapiens, UniProt Q09013)", "test": "competitive binding panel", "how to read": "relative to: vehicle", "remaining binding": "56%"}
{"note": "For quick reference, copied from above (set 4):"}
{"target": "DAPK3 (Homo sapiens, UniProt O43293)", "test": "competitive binding panel", "how to read": "relative to: vehicle", "remaining binding": "4.8%"}
{"target": "EPHA2 (Homo sapiens, UniProt P29317)", "test": "competitive binding panel", "how to read": "relative to: vehicle", "remaining binding": "85%"}
{"target": "MAPK4 (Homo sapiens, UniProt P31152)", "test": "competitive binding panel, refers to: ERK4", "how to read": "relative to: vehicle", "remaining binding": "74%"}
{"target": "SIK1 (Homo sapiens, UniProt P57059)", "test": "competitive binding", "setting": "SIK", "remaining binding": "67%"}
{"target": "DMPK (Homo sapiens, UniProt Q09013)", "test": "competitive binding panel", "how to read": "relative to: vehicle", "remaining binding": "56%"}
{"target": "FRK (Homo sapiens, UniProt P42685)", "test": "competitive binding panel", "how to read": "relative to: vehicle", "remaining binding": "88%"}
